Measurements from different studies.
Lines come from different studies, so protocols differ. Numbers after ± are the reported error.

Structure (SMILES)	assay	system	conditions	scale	measurement	value
COC(=O)C[C@](O)(CCCC(C)(C)OC(C)=O)C(=O)O[C@@H]1C(OC)=C[C@]23CCCN2CCc2cc4c(cc2[C@H]13)OCO4		CD1 mouse, spleen	subcutaneous, 1 mg/kg, 0.5 h		tissue concentration	984 ng/mL
O=C(c1ccc(F)cc1)C1CCN(C2Cc3c(cccc3OCC[18F])CC2O)CC1 (single isomer, unassigned; (-))		Sprague-Dawley rat, male, whole brain	60 min post-injection		tissue uptake	0.425 ± 0.075 %ID/g
O=P([O-])([O-])Oc1ccc(-c2cc(=S)ss2)cc1.[Na+].[Na+]	HPLC	PBS	24 h, pH 7.4, 25 °C		solubility	1790 µg/mL
CC[C@H](C)C(=O)N1CCC(NC(=O)Nc2ccc(OC(F)(F)F)c(F)c2)CC1		human, plasma	oral, 16 mg, single dose, healthy volunteers		Tmax	1.25 h
CC(C)[C@H](NC(=O)CNC(=O)[C@H](CCC(N)=O)NC(=O)[C@H](C)N)C(=O)O		human	intravenous infusion, 90 mg/kg/h, 2 h infusion		subjects with severe adverse events	0%
CC[C@H](C)[C@H](NC(=O)[C@@H](CCCCN)NC(=O)[C@@H](CCCCN)NC(=O)[C@H](Cc1ccccc1)NC(=O)[C@H](CC(C)C)NC(=O)[C@@H](CCCCN)NC(=O)[C@H](Cc1c[nH]c2ccccc12)NC(=O)[C@H](CCCCN)NC(C)=O)C(=O)NCC(=O)N[C@@H](C)C(=O)N[C@H](C(=O)N[C@@H](CC(C)C)C(=O)N[C@H](CCCCN)C(=O)N[C@H](CCCCN)C(=O)N[C@@H](CC(C)C)C(N)=O)C(C)C		human red blood cells	up to 64 µM, 1 h, 5% red blood cells		hemolysis	< 5%
N=C(N)NCc1ccc(C(=O)NCCCC[C@H](NC(=O)CCCCCCC(=O)NCCCC[C@H](NC(=O)N[C@@H](CCC(=O)O)C(=O)O)C(=O)O)C(=O)O)cc1[211At]		SCID mouse, PC-3 xenografts, spleen	1 h		tissue uptake	9.51 ± 2.76 %ID/g
CCCC[C@H]1C(=O)N(C)[C@@H](CCCC)C(=O)N[C@@H](CCCNC(=O)CN2CCN(CC(=O)O)CCN(CC(=O)O)CCN(CC(=O)O)CC2)C(=O)N[C@H](C(=O)NCC(N)=O)CSCC(=O)N[C@@H](Cc2ccc(O)cc2)C(=O)N(C)[C@@H](C)C(=O)N[C@@H](CC(N)=O)C(=O)N2CCC[C@H]2C(=O)N[C@@H](Cc2c[nH]cn2)C(=O)N[C@@H](CC(C)C)C(=O)N(C)CC(=O)N[C@@H](Cc2c[nH]c3ccccc23)C(=O)N[C@@H](CO)C(=O)N[C@@H](Cc2c[nH]c3ccccc23)C(=O)N1C [gallium-68 labelled]	biodistribution	NOD/SCID mice, CHO xenograft, CHO tumour, PD-L1-negative	60 min post injection		tumour uptake	3 ± 0.96 %ID/g
N=C(N)NCc1ccc(C(=O)NCCCC[C@H](NC(=O)CCCCCCC(=O)NCCCC[C@H](NC(=O)N[C@@H](CCC(=O)O)C(=O)O)C(=O)O)C(=O)O)cc1[131I]		SCID mouse, PC-3 xenografts, heart	2 h		tissue uptake	0.27 ± 0.14 %ID/g
NS(=O)(=O)NCC(F)(F)c1ccccc1F	rotarod impairment	mouse	intraperitoneal		TD50	217 ± 7 mg/kg
C/C=C/C=C/C/C=C/CCCCCCCc1cccc(O)c1O		female Kunming mice, tumour-bearing, spleen	intravenous, 10 mg/kg, 4 h		tissue concentration	6280 ± 650 ng/g
CC(C)[C@H](NC(=O)CNC(=O)[C@H](CCC(N)=O)NC(=O)[C@H](C)N)C(=O)O		healthy male volunteers	intravenous, 15 mg/kg/h, 2 h, with: LPS 2 ng/kg		subjects with moderate AE	0%
CC[C@H](C)[C@@H]1NC(=O)[C@H](CCCCN)NC(=O)[C@@H](NC(=O)[C@H](C)NC(=O)[C@@H](NC(=O)[C@H](CC(C)C)NC(=O)[C@H](CC(N)=O)NC(=O)[C@@H](NC(=O)CNC(=O)[C@H](CC(C)C)NC(=O)[C@H](CCCNC(=N)N)NC(=O)[C@H](C)NC(=O)[C@H](CC(C)C)NC(=O)[C@H](CC(=O)O)NC(=O)[C@H](CCCCN)NC(=O)CNC(=O)[C@H](CC(C)C)NC(=O)CNC(=O)[C@H](CCCCN)NC(=O)[C@H](CO)NC(=O)[C@H](C)NC(=O)[C@H](Cc2ccccc2)NC(=O)[C@H](CCCCN)NC(=O)[C@H](C)NC(=O)[C@@H](NC(=O)CNC(=O)[C@H](CCCNC(=N)N)NC(=O)[C@H](Cc2ccccc2)NC(=O)[C@@H](NC(=O)[C@H](CO)NC(=O)[C@H](CO)NC(=O)[C@H](Cc2ccccc2)NC(=O)CN)[C@@H](C)CC)C(C)C)C(C)C)C(C)C)CSSC[C@@H](C(=O)O)NC(=O)[C@H](CCC(N)=O)NC(=O)[C@H](CCCCN)NC(=O)[C@H](CO)NC1=O		horse erythrocytes	above 16 µM		haemolysis	~16.2%
CC[C@H](C)[C@@H]1NC(=O)[C@H](CCCNC(=N)N)NC(=O)[C@H](CCCNC(=N)N)NC(=O)[C@H](Cc2ccc(O)cc2)NC(=O)[C@H](CC(C)C)NC(=O)[C@@H]2CCCN2C(=O)[C@H](C)NC(=O)CNC(=O)CNC(=O)[C@H](CO)NC(=O)CNC(=O)CNC(=O)[C@H](CO)NC(=O)[C@H](CCC(=O)O)NC(=O)[C@H](CC(C)C)NC(=O)[C@H](CC(C)C)NC(=O)[C@H](CCCNC(=N)N)NC(=O)[C@H](CCCNC(=N)N)NC(=O)[C@H]([C@@H](C)CC)NC(=O)[C@H]([C@@H](C)CC)NC(=O)[C@H](CCCNC(=N)N)NC(=O)[C@H](CCCNC(=N)N)NC(=O)[C@H](Cc2ccc(O)cc2)NC(=O)[C@H](CC(C)C)NC(=O)[C@@H]2CCCN2C(=O)CNC(=O)CNC(=O)[C@@H](NC(=O)CN)CSSC[C@@H](C(N)=O)NC(=O)[C@H](CC(C)C)NC(=O)[C@H](CCCNC(=N)N)NC(=O)[C@H](CCCNC(=N)N)NC(=O)[C@H]([C@@H](C)CC)NC1=O	hemolysis	uninfected human erythrocytes	1 h		HC10	6.6 ± 0.9 µM
O=c1c2cc(Cl)ccc2sc2c(NCc3ccccc3)nc3ccccc3c12		BALB/c nude mice	i.p., 5 mg/kg		body weight	22 ± 0.24 g
Cc1ccc(/C=C/C(=O)O)cc1-c1cc2c(cc1C)C(C)(C)CCC2(C)C		Sprague-Dawley rat, male, plasma	oral, 100 mg/kg, 24 h, sesame oil vehicle		LDL level	7 mg/dL
CN(C)C(CNC(=O)Nc1cc(C(F)(F)F)ccc1N1CCOCC1)c1ccncc1 (stereo not drawn)		mouse, serum	intraperitoneal, 180 mg/kg single dose		serum GGT	< 3 U/L
CC[C@H](C)[C@@H]1NC(=O)[C@H](CCCCN)NC(=O)[C@H](CCCCN)NC(=O)[C@H](Cc2ccc(O)cc2)NC(=O)[C@H](CC(C)C)NC(=O)[C@@H]2CCCN2C(=O)[C@H](C)NC(=O)CNC(=O)CNC(=O)[C@H](CO)NC(=O)CNC(=O)CNC(=O)[C@H](CO)NC(=O)[C@H](CCC(=O)O)NC(=O)[C@H](CC(C)C)NC(=O)[C@H](CC(C)C)NC(=O)[C@H](CCCCN)NC(=O)[C@H](CCCCN)NC(=O)[C@H]([C@@H](C)CC)NC(=O)[C@H]([C@@H](C)CC)NC(=O)[C@H](CCCCN)NC(=O)[C@H](CCCCN)NC(=O)[C@H](Cc2ccc(O)cc2)NC(=O)[C@H](CC(C)C)NC(=O)[C@@H]2CCCN2C(=O)[C@H](C)NC(=O)CNC(=O)[C@@H]2CSSC[C@H](NC(=O)[C@H](CC(C)C)NC(=O)[C@H](CCCCN)NC(=O)[C@H](CCCCN)NC(=O)[C@H]([C@@H](C)CC)NC1=O)C(=O)N[C@@H](CCCCN)C(=O)N[C@@H](CC(N)=O)C(=O)NCC(=O)N2	hemolysis	uninfected human erythrocytes	1 h		HC10	22.1 ± 2.4 µM
CCCCCCCCCCCCC(=O)O.O=C1CCCC2C3CCCN4CCCC(CN12)C34 (stereo not drawn)	electrical conductivity	water	303.15 K		standard entropy of aggregation	108 J/(mol·K)
O=C(O)CCn1c(=O)oc2cc(Cl)c(Cl)cc21		mouse, Kmo wild type, plasma	intravenous, 30 mg/kg, 1 h		plasma concentration	263 ± 98 µM
CN[C@](C)(C[18F])C(=O)O		SCID mouse DU-145 xenograft, bone	60 min post injection		tissue uptake	1.9 ± 0.2 %ID/g
CCN(Cc1ccccc1)C(=O)CCc1nc(CN2CCN(C(=O)Cc3ccc(OC)c(OC)c3)CC2)no1		rat, liver	intravenous, 1 mg/kg, 30 min, single dose		concentration	16 ng/g
[2H]C([2H])([2H])C([2H])([2H])C([2H])([2H])OC(C(=O)OC1CCNCC1)(c1ccccc1)c1ccccc1	measured: tonsillitis	healthy Japanese male	oral, 18 mg, 16 days, multiple ascending dose		adverse events	14.3%
CCNc1cc2[o+]c3cc(NCC)c(C)cc3c(-c3ccccc3C(=O)OCCOCC[18F])c2cc1C		rat	120 min	relative to: heart over lung	tissue uptake ratio	2.2

A few entries again:
Structure (SMILES)	assay	system	conditions	scale	measurement	value
CCNc1cc2[o+]c3cc(NCC)c(C)cc3c(-c3ccccc3C(=O)OCCOCC[18F])c2cc1C		rat	120 min	relative to: heart over lung	tissue uptake ratio	2.2
